Experimental data of several laboratories.
A part holds a random share of what one study measured. Positions count from the first letter of the parent shown.

Set 1
Target: Sal-like protein 4, full length isoform A (SALL4, Homo sapiens, UniProt Q9UJQ4, residues 1-1053)
UniProt Q9UJQ4, sequence (whole entry, looked up): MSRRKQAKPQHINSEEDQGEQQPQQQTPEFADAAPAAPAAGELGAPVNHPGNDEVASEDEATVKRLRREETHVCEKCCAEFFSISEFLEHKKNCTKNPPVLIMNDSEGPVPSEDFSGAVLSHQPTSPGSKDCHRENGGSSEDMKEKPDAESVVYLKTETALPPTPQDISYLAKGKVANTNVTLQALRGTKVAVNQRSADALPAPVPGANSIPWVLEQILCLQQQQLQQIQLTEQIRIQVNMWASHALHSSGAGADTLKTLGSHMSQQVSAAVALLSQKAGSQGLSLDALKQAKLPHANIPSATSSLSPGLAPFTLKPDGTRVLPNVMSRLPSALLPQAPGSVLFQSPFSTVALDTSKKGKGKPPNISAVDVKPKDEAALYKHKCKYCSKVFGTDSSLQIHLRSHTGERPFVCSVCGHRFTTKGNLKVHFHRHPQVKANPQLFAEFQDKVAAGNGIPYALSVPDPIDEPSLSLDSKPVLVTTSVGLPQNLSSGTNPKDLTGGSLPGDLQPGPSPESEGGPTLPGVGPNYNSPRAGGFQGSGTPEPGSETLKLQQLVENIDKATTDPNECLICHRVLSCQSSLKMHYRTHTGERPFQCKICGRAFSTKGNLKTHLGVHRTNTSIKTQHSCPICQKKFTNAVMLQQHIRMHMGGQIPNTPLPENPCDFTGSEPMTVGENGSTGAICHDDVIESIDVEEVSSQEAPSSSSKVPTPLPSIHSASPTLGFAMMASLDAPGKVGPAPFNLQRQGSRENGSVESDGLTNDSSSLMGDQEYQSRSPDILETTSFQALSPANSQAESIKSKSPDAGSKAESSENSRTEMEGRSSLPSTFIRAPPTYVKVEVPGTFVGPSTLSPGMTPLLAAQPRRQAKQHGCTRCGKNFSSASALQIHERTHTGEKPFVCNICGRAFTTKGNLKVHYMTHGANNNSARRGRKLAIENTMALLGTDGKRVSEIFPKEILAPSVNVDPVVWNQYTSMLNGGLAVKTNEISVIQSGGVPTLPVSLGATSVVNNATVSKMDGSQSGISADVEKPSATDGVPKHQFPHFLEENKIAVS
Technique: universal PBM
Molecule type: double-stranded DNA, one strand shown
Matrix: in vitro
Tested at: 600 nM
Setting: 8-mer, flanks averaged, mean of replicates
Direction: higher = stronger binding
Measurement: E-score
Sequence = ATTTGTGG; result = 0.187
Sequence = GATTTAGA; result = 0.141
Sequence = CAATGAAA; result = 0.215
Sequence = ACACCGGG; result = -0.306
Sequence = AATAGACG; result = 0.108
Sequence = GCTTGGCC; result = -0.276
Sequence = TTATGCAA; result = 0.279
Sequence = ATTGCTCG; result = -0.0271
Sequence = AACCGCAA; result = -0.0493
Sequence = AGTCGGCC; result = -0.275
Sequence = ATCTCGGA; result = -0.0534
Sequence = GCGAACGA; result = -0.0866
Sequence = CGAAGCCA; result = -0.0971
Sequence = AGGATTCG; result = -0.0763
Sequence = CCTAATAA; result = 0.362
Sequence = ACCTTGGC; result = -0.168
Sequence = AGTAAAAC; result = 0.201
Sequence = GGTCGTGA; result = -0.0777
Sequence = GGGATCAC; result = -0.263
Sequence = AGACGGAG; result = -0.115
Sequence = AAACACAA; result = 0.24
Sequence = GCAGCGTA; result = -0.114

Set 2
Target: CEP164, C-terminal peptide (human)
Technique: DHFR complementation, deep sequencing
Matrix: yeast
Setting: single substitutions, model-inferred values
Reference: wild type
Direction: higher = weaker binding
Measurement: binding free energy change
Starting sequence: PDZK1, PDZ domain 2 (human); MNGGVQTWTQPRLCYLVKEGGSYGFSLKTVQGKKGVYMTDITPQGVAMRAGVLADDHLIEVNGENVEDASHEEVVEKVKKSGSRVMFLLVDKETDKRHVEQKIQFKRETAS; partner HNRVKVYRF
Substitution = T39M; result = 1.3 kcal/mol
Substitution = M38G; result = 1.58 kcal/mol
Substitution = Y15W; result = 0.253 kcal/mol
Substitution = G32I; result = 0.923 kcal/mol
Substitution = P11Y; result = 0.378 kcal/mol
Substitution = P43G; result = 0.641 kcal/mol
Substitution = A50P; result = 1.58 kcal/mol
Substitution = E108H; result = -0.282 kcal/mol
Substitution = K77R; result = -0.0523 kcal/mol
Substitution = V5Q; result = 0.0205 kcal/mol
Substitution = K77H; result = 0.331 kcal/mol
Substitution = S70N; result = 0.0955 kcal/mol
Substitution = A50W; result = 0.669 kcal/mol
Substitution = D91M; result = 0.141 kcal/mol
Substitution = L53H; result = 0.0661 kcal/mol
Substitution = G82D; result = 0.73 kcal/mol
Substitution = T7F; result = -0.128 kcal/mol
Substitution = L88Y; result = -0.0858 kcal/mol
Substitution = E64F; result = 0.284 kcal/mol
Substitution = S22Q; result = 0.239 kcal/mol

Set 3
Target: CCNB2, cyclin fold, Cln2 fusion (human)
Technique: yeast growth competition, sequencing
Matrix: yeast
Setting: weak parent motif
Reference: not given
Direction: higher = stronger binding
Measurement: normalised enrichment score
Starting sequence: PKN2 docking peptide (human); DSTVTKLDFDLEP; partner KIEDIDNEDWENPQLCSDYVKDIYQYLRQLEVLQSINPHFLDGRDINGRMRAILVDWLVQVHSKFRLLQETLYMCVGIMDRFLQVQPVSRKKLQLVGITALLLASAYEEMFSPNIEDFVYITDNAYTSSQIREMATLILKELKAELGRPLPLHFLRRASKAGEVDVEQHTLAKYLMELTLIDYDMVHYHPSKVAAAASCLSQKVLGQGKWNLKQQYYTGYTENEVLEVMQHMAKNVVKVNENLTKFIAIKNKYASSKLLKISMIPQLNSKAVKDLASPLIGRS
Substitution = E12A; result = -0.178
Substitution = D1A; result = -0.21
Substitution = D8A; result = -0.214
Substitution = V4A; result = 0.00938
Substitution = D10A; result = -0.73
Substitution = L7A; result = -0.661
Substitution = P13A; result = 0.262

Set 4
Target: RING finger protein unkempt homolog, zinc fingers 1-6, SBP tag (UNK, Homo sapiens, UniProt Q9C0B0, residues 30-357)
UniProt Q9C0B0, sequence (30-357, looked up): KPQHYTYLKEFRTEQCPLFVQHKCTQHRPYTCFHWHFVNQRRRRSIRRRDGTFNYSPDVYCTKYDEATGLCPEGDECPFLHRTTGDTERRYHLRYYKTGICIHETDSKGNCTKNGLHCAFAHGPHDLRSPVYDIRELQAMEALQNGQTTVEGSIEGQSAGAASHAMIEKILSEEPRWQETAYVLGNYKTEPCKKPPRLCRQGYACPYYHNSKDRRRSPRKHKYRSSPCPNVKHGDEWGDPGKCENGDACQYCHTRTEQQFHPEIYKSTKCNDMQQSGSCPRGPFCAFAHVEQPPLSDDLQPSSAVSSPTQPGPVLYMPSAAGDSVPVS
Technique: RNA Bind-n-Seq
Molecule type: RNA
Matrix: in vitro
Tested at: 100 nM
Setting: RNA with constant flanks, vertebrate orthologous sites, ends assumed
Reference: input RNA pool
Direction: higher = stronger binding
Measurement: bound/input enrichment
All sequences stand within: GGGAGUUCUACAGUCCGACGAUC … CAACAGAGGAUUGAGCAUCA
Sequence = UGUCCUUUCUUACUGUCCCCAGCCAGGGCCGGGGACCGGUGUUUCACUGAGGACCUGCAUUAGAAACAUUUUUUAAAUUGUUGUACAGGAAGAGAUGUGUCUAAAACAGCAUCUUAAAGC; result = 0.966 ratio
Sequence = AGUAUCCCAGUUGUACCGUGUUGGGUUGGCAUUGUACAGAAAUUAACAGCCAUAUUGGUCUAGAAACAUUAAACAUAAUUUUUUCCAUUUGUACAGGGGUAACGCACUGUAUUAAAUAUG; result = 1.6 ratio
Sequence = GGUUGAUGUUCUGAAGAACCACUUGGUAAAAGAAGGUCGGGUAGAUGAAGAAAUUGCACUUAGAAUUAUCAAUGAGGGUGCUGCCAUCCUUCGGAGAGAGAAAACCAUGAUAGAAGUAGA; result = 0.427 ratio
Sequence = UCCCCGUUACCCCUAAAGUAAAACAUUUUUUAAAUUGUGUUGCCACCACUUCUAAAAAUUUAGCAAUAUUAGAAUAGGAUACUAGUGAAGUAAGAAAUUUUGCUUGUUGUUUUGCAAACC; result = 2.08 ratio
Sequence = GGGCUGUGUAGAGUAGGGCUGUGUUCUUCUUAGGAUGUUGCUUCUUGAUUUUCUUUUUUUAAGGGGUGGGUCAGGGUUGUGACACACCAGCCCAGGCAAGAGCUGCUGCGGGUCACCUCA; result = 1.34 ratio
Sequence = CCCACACGCCGCUCCAGCUGCCUCGGGAGAGCCCUUCGCCUCUGGCUCUCCUUCCUGUGUUCAUUUUCCUCGGGGCCCUGACCCUGUUCAUCUCGUAUUUAUUUGUUCUUCACGCUGGCG; result = 0.736 ratio
Sequence = AUGUAUGUAGAAAAAAAUUUUCAUUCAUCUUCCUGUUGUGAAAUUCUCUAGCACUGUAUUUAGAUUCUGGAUUUUUAUAAUUCAUGCUUAAUGUAUUAGACAUUUUAGCUCAUAAUUAAA; result = 0.633 ratio
Sequence = ACCCGAAGCACGGACAGAAGGAAAACCUGCUCACUGUGUCCACCCGCACCACGACGUGGUCCGUGGAUUUUUUUUUUUUUUUCUGCCUCAGAGUCCCCAAAGCCUUUAAGCAAAAGUGGC; result = 0.725 ratio
Sequence = UGUUCUCUUUUCAUAGGUAUCAUUGCCCAAUGCCGAAGAUUUUUUAUGUUCAAUUGACUGUAGGAAAUAAUGAGUUCUUUGGUGAAGGGAAGACUCGACAAGCUGCCAGACAUAAUGCUG; result = 0.532 ratio
Sequence = GCAAAGGAAAAGCAGCCCUUCUCCCAGCCCCCCUUUCGCUAGGAGAUACAAACGUUACCGUAGAAGAGCAAUUAAACUCAAUACAUUUAUCUUUUCAGGAUGAUCCAGACUCCAGUACCA; result = 0.683 ratio
Sequence = CCUACAAUAAUGAAAACCUACAAGAAUUUUUUUAUUUUUCAUUUUCCCCUUAGGCAUAUUUAGUAUUUUUUCCCCCAGGCAGAUCAUUCUGAGUGUGCGUGUGUGUGUGCACAUGUUACA; result = 2.82 ratio

Set 5
Target: JUN, bZIP domain (human)
Technique: DHFR protein complementation
Matrix: yeast
Setting: single substitutions, most at no-binding floor
Reference: wild-type JUN-FOS pair
Direction: higher = stronger binding
Measurement: binding fitness
Starting sequence: JUN, bZIP domain (human); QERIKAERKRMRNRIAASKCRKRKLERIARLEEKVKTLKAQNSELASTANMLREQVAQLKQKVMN
Substitution = L59T; result = -1.22 natural log
Substitution = V35G; result = -1.27 natural log
Substitution = L52V; result = -1.37 natural log
Substitution = L52R; result = -1.29 natural log
Substitution = L59S; result = -1.26 natural log
Substitution = S43P; result = -1.34 natural log
Substitution = L31E; result = -1.45 natural log
Substitution = L52P; result = -1.34 natural log
Substitution = L38K; result = -1.36 natural log
Substitution = V35R; result = -1.2 natural log
Substitution = L31T; result = -1.35 natural log

Set 6
Target: RNA binding protein fox-1 homolog 2, RRM domain, GST-SBP tag (RBFOX2, Homo sapiens, UniProt O43251-10, residues 100-194)
Technique: RNA Bind-n-Seq
Molecule type: RNA
Matrix: in vitro
Tested at: 365 nM
Setting: natural RNA segment, single round, ends assumed
Reference: no-protein control
Direction: higher = stronger binding
Measurement: RBNS enrichment (R)
All sequences stand within: GGGAGUUCUACAGUCCGACGAUC … UGGAAUUCUCGGGUGCCAA
Target sequence (chain): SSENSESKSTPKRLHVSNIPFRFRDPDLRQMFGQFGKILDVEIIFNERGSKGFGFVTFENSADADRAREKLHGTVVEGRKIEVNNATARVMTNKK
Sequence = UCUGGAAGAACAUCAAGAUAUCUUUUUGUGGAUCAAGUUUGAGUACUUGAUCAUUUUUAUAUUACUUUUGUAAAUAUUCUUGGCCACAUUCUACUUCAGCUCUGGAUGUG; result = 0.571
Sequence = GGGACGGGGCCGCUCAGGGCGUUAGGAGAAUAGAGGAAGAGAGGGCAGCUGUGAGAACCCGGCUCGUUCCGACCUGCGGAUAGUCAAGCGAUCAGAGUAUGUCUUGUGUG; result = 2.22
Sequence = CUCUCAGAAACAGGGCUCAGUACAGAACUUCCACAGCUGAUCAGCCUCCCUUGCAGGUUUGCCAAGUAUCUGCUUCCUGUGGAAGCAAGACCAAAAGGAAACCAACCGAG; result = 0.264
Sequence = AGUCAGUCCAGCUCGGGACCGAUGCCUGCUGUGCCUUCCUGCUGAGGGACACCUGCUUAUUUUCCCCCGUGGGCCUCACUCUAUCCCUGAAAACAGUGAAUGUUAUAUGA; result = 0.506
Sequence = UCCUUUCUUUUUACACAUCCUACUGUCCCUUAGGGUAAAAUUUUCAGCAUUAAAUAAAACAUUUCAAAUAUAUUGUAUAUGGCUUUAGUUGUAAACUAUACUGCAUGCUG; result = 5.11
Sequence = AAAGAGAGAAUCAUCAUCAAGGCACCGUAGGUAACUCAGUGGCUGUGACCAGCUCGACUGGCGGCCACUGGCUGUUCCCAUGAGUUCAGCUGUGACGUUAGCUUCAGUGG; result = 0.257
Sequence = UGGCCACGUUGCAAUAAAAAUUGUGGCAUAUUACAGAACGUUGCCUUGUUUUCCUUGGAAAUUUUGCAAAAUGUUAUGUGAAACAACUUCUAGGGUAAAAACAGCUAUUA; result = 0.382
Sequence = UCAUUGUCUGAUUAAAACAGUUUAUAUGUUGUUGUUAGCUCAUUUAAAGCUACAUCAUGCUGUAGUGUUGGCAUUUUUAGUUAAUAGGGCAUUGUCUUCCUUGUAUAUGU; result = 0.46
Sequence = GUCAUUUCUGCACACCUGUCCGCUGUUGACACCUUAUUAGAGGCACUGCAUUUUGGUUUCACAAUUCUUCAUCUCCCUUCCCAAGGAAUGGGCAAUCUACUGAACUUCCA; result = 0.64
Sequence = ACAGUGCUGAAAUCAGGUGGUUAAACGGGUAAACAAAAUAUACUGUAUUUUGAGAAAUGGCACAAAAACAGGCAGUCAUCUUUAAGGGCUAUGCCUAGGCAAACUACUAA; result = 0.361
Sequence = UGCACUUGCAUCUAAACAAAACUGUUGCAGUUUUUACUCUAUUUAUUUUGUUCCCCAUGUUUAUGAAAGUCCUGCACAGUUUCAAAGGCAUGGUAAAUAAUAUAUCAAUG; result = 2.19
Sequence = UAAACAGGCUUCUGGCAGUAGCUUUGGUUCCUAUCCCAUCGAAAUUCCCCAAAGCCCUGGGCCACUGCCAUUGGGUUAGUCAAGAUGAAGGAGGAGGACUGGCUGCCUCC; result = 0.41

Single results of other studies
Substance = PhoQ, residues 284 288 289 292 302 303 SCKMEA; target = PhoP, residues 12 14 15 18 19 SYFRT (Escherichia coli, UniProt P23836); assay = Sort-seq, item: YFP reporter; test system = E. coli; conditions = PhoQ-PhoP variant library, with: 10 µM Mg2+; scale = reference: high Mg2+ state, higher = stronger signaling; measurement = fold induction; result = 9.6

Repeated from above (single results of other studies):
Substance = PhoQ, residues 284 288 289 292 302 303 SCKMEA; target = PhoP, residues 12 14 15 18 19 SYFRT (Escherichia coli, UniProt P23836); assay = Sort-seq, item: YFP reporter; test system = E. coli; conditions = PhoQ-PhoP variant library, with: 10 µM Mg2+; scale = reference: high Mg2+ state, higher = stronger signaling; measurement = fold induction; result = 9.6
